Published values of several laboratories.
Numbered parts are unrelated; each lists some results of a single study. Substitutions count along the parent as printed.

Study 1
Target: Sal-like protein 4, full length isoform B (SALL4, Homo sapiens, UniProt Q9UJQ4-2, residues 1-616)
Technique: universal PBM
Form: double-stranded DNA, one strand shown
Sample: in vitro
Tested at: not given
Notes: 8-mer, flanks averaged, mean of replicates
Direction: higher = stronger binding
Sequence | E-score
AGACTACT | 0.101
CTGAATTC | -0.0609
GCTGAGGA | -0.15
AACTTCCG | -0.0142
ACCAGTTA | 0.069
CGATCCCC | -0.282
ACTATCAA | 0.0984
GCTGTAGA | -0.0798

Study 2
Target: Transcription factor SOX-2, HMG box (SOX2, Homo sapiens, UniProt P48431, residues 19-118)
Sequence of UniProt P48431 (19-118, looked up): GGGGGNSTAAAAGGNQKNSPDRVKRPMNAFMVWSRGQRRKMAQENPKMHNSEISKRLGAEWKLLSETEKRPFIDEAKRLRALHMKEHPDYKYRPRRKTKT
Technique: protein-binding microarray
Form: double-stranded DNA, one strand shown
Sample: in vitro
Tested at: not given
Notes: k-mer, scored over probes, only values ≥0.25
Direction: higher = stronger binding
Sequence | E-score
TATACAA | 0.295
AATTGGA | 0.283
AATGAAG | 0.252
ACAATCT | 0.363
GAATTTA | 0.271
ACAAAGA | 0.331
AATTCTA | 0.308
ATTATCC | 0.364

Study 3
Substitution: I57G
Target: ABI1, truncated, D143A, DHFR fusion (Arabidopsis thaliana)
Technique: DHFR PCA, deep sequencing
Sample: yeast
Notes: methotrexate growth selection, single substitutions
Reference: wild-type fitted maximum
Direction: higher = stronger binding
Starting sequence: PYL1, truncated, DHFR fusion (Arabidopsis thaliana); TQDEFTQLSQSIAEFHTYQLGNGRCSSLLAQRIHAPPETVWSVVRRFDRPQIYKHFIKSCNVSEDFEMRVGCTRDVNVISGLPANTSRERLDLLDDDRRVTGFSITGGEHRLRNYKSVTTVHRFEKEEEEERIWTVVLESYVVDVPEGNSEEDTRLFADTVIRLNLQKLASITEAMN; partner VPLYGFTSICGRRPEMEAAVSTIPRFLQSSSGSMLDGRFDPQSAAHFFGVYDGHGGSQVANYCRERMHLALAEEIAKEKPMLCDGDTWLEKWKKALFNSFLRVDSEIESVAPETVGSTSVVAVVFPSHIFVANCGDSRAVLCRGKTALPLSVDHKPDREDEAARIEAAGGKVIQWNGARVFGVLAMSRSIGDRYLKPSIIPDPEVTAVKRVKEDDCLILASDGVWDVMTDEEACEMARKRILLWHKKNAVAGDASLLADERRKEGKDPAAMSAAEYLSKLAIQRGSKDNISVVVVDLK
conditions | relative binding score
together with: (+)-ABA 0 µM | 0.219%
together with: (+)-ABA 200 µM | 3.05%
together with: (+)-ABA 710 µM | 7.96%
together with: (+)-ABA 17 µM | -11.1%
together with: (+)-ABA 58 µM | 3.22%
together with: (+)-ABA 0.39 µM | -6.38%

Other studies, line by line
Sequence | target | assay | system | conditions | measurement | value
TLKDGDFIL | HLA class I histocompatibility antigen, A alpha chain, allele A*80:01 (Homo sapiens, UniProt P04439) | peptide-MHC binding | peptide | concentration not given | binding | inactive

For quick reference, copied from above (study 1):
Sequence | E-score
GCTGAGGA | -0.15
AACTTCCG | -0.0142
ACCAGTTA | 0.069
